Measurements from different studies.
Each line is one published result; not all experiments were run side by side.

Compound | assay | test system | setting | Cmax
CCN1CCN(Cc2ccc(Nc3ncc(F)c(-c4cc(F)c5nc6n(c5c4)[C@H](C)CCC6)n3)nc2)CC1 | – | human, plasma | 500 mg multiple dosing, mean | 476 ng/mL
C[C@@H](Nc1cc(F)cc(F)c1)c1cc(C(=O)N(C)C)cc2c(=O)cc(N3CCOCC3)oc12 | – | human | oral, 180 mg twice daily, day 1, 5:2 schedule, single dose, range | 1250 to 1940 ng/mL
C=CC(=O)N(C)CCOc1c(N)ncnc1-c1cc(F)cc(NC(=O)c2ccc(C3CC3)cc2F)c1C | – | human | oral, 30 mg single dose | 64.8 ng/mL
CNC(=O)c1ccc(-c2cnc3ncc(Cc4ccc5ncccc5c4)n3n2)cc1F | – | human mild hepatic impairment NCI | oral, 200 mg single dose, mean | 1910 ng/mL
O=C(COc1ccc(Cl)cc1)NC12CC(c3nnc([C@H]4C[C@@H](OC(F)(F)F)C4)o3)(C1)C2 | – | healthy human both sexes, plasma | oral, 200 mg once daily, day 1, mean | 2290 nM
Cl.[2H]C([2H])([2H])CC(=O)c1cnc(NC(=O)C2CC2)cc1Nc1cccc(-c2ncn(C([2H])([2H])[2H])n2)c1OC | – | human, fed, multiple dose | oral, 30 mg twice daily, tablet, day 1, geometric mean | 182 ng/mL
COc1cc(N2CCC(N3CCN(C)CC3)CC2)ccc1Nc1ncnc(Nc2ccccc2S(=O)(=O)C(C)C)n1 | – | human, dose expansion arm, plasma | oral, 200 mg, day 28, mean | 1760 ng/mL
CO[C@H]1C[C@@H]2CC[C@@H](C)[C@@](O)(O2)C(=O)C(=O)N2CCCC[C@H]2C(=O)O[C@H]([C@H](C)C[C@@H]2CC[C@@H](OC(=O)NCCOCCOCCOCCOCCOCCOCCOCCOCCC(=O)N3CCc4cc(Cn5nc(-c6ccc7oc(N)nc7c6)c6c(N)ncnc65)ccc4C3)[C@H](OC)C2)C[C@@H](O)[C@H](C)/C=C(\C)[C@@H](O)[C@@H](OC)C(=O)[C@H](C)C[C@H](C)/C=C/C=C/C=C/1C | – | human, plasma | intravenous, 12 mg, cycle 1 day 1, arithmetic mean | 504 ng/mL
CCn1cc(C(=O)N2CCOCC2)c(=O)c2cc(NC3Cc4ccccc4C3)cnc21 | – | human, fasted | oral suspension, 600 mg single dose, arithmetic mean | 809 ng/mL
C[C@@H]1CCO[C@H]2Cn3cc(C(=O)NCc4ccc(F)cc4F)c(=O)c(O)c3C(=O)N12 | – | human, body weight 25 to <30 kg, plasma | oral, 22.4 mg, granules, steady state | 4090 ng/mL
COc1ncc(-c2nc3c(n2C(C)C)[C@H](c2ccc(Cl)cc2)N(c2cc(Cl)cn(C)c2=O)C3=O)c(OC)n1 | LC-MS/MS | human, plasma | oral, 30 mg, cycle 1 day 14, low-dose arm | 157 ng/mL

Excerpt of the above:
Compound | assay | test system | setting | Cmax
CO[C@H]1C[C@@H]2CC[C@@H](C)[C@@](O)(O2)C(=O)C(=O)N2CCCC[C@H]2C(=O)O[C@H]([C@H](C)C[C@@H]2CC[C@@H](OC(=O)NCCOCCOCCOCCOCCOCCOCCOCCOCCC(=O)N3CCc4cc(Cn5nc(-c6ccc7oc(N)nc7c6)c6c(N)ncnc65)ccc4C3)[C@H](OC)C2)C[C@@H](O)[C@H](C)/C=C(\C)[C@@H](O)[C@@H](OC)C(=O)[C@H](C)C[C@H](C)/C=C/C=C/C=C/1C | – | human, plasma | intravenous, 12 mg, cycle 1 day 1, arithmetic mean | 504 ng/mL
